Assay results gathered from unrelated publications.
Protocols differ between the studies behind these lines.

SMILES	technique	sample	tested at	pH	temperature	setting	helicity [%]
CC(C)C[C@H](NC=O)C(=O)N[C@@H](C)C(=O)N[C@@H](C)C(=O)N[C@@H](CC(=O)O)C(=O)N[C@@H](CC(C)C)C(=O)N[C@@H](CC(C)C)C(=O)N[C@@H](C)C(=O)N[C@@H](C)C(=O)N[C@@H](CC(C)C)C(=O)NCC(=O)N[C@@H](CC(=O)O)C(=O)N[C@@H](CC(C)C)C(=O)N[C@@H](C)C(=O)N[C@@H](CCCCN)C(=O)N[C@@H](Cc1c[nH]c2ccccc12)C(=O)N[C@@H](CC(C)C)C(=O)N[C@@H](CC(C)C)C(=O)N[C@@H](CC(=O)O)C(=O)N[C@@H](C)C(=O)N[C@@H](CC(C)C)C(=O)N[C@@H](C)C(=O)N[C@@H](CCCCN)C(=O)N[C@@H](C)C(=O)N[C@@H](C)C(=O)N[C@@H](CCCCN)C(=O)N[C@@H](CCCCN)C(=O)O (racemic)	circular dichroism	POPC vesicles 5 mM	20 µM	–	–	fully membrane bound	54
CC[C@H](C)[C@H](NC(=O)[C@H](Cc1ccccc1)NC(=O)[C@H](CC(=O)O)NC(=O)[C@@H]1CCCNC(=O)NC[C@H](NC(=O)[C@H](CC(C)C)NC(=O)[C@H](CCCNC(=N)N)NC(=O)[C@H](CCSC)NC(=O)[C@H](C)N)C(=O)N[C@@H](CCCCN)C(=O)N[C@@H](Cc2ccccc2)C(=O)N[C@@H](Cc2ccccc2)C(=O)N1)C(=O)N[C@@H](CC(C)C)C(=O)N[C@@H](CCC(N)=O)C(=O)N[C@@H](CCCNC(=N)N)C(=O)N[C@@H](CCCCN)C(=O)N[C@@H](CCCCN)C(=O)O	circular dichroism	20% TFE in PBS	200 µM	pH 7.4	25 °C	–	17.2
CC(C)C[C@H](NC(=O)[C@H](CCC(=O)O)NC(=O)[C@H](C)NC(=O)[C@H](CCC(=O)O)NC(=O)[C@H](CCC(=O)O)NC(=O)[C@H](Cc1c[nH]cn1)NC(=O)[C@H](CCCNC(=N)N)NC(=O)[C@H](CCC(=O)O)NC(=O)[C@H](CC(N)=O)NC(=O)[C@H](CCCCN)NC(=O)[C@H](CC(C)C)NC(=O)[C@H](CCCNC(=N)N)NC(=O)[C@H](CCC(N)=O)NC(=O)[C@H](CC(C)C)NC(=O)[C@H](CCC(=O)O)NC(=O)[C@H](C)NC(=O)[C@H](CC(N)=O)NC(=O)[C@H](C)NC(=O)[C@@H](NC(=O)[C@H](CC(C)C)NC(=O)[C@H](CCCCN)NC(=O)[C@H](CCC(=O)O)NC(=O)[C@@H](NC(=O)[C@H](CO)NC(=O)CN)C(C)C)[C@@H](C)O)C(=O)N[C@@H](CCC(=O)O)C(=O)N[C@@H](CCCNC(=N)N)C(=O)N[C@@H](CC(C)C)C(=O)N[C@@H](CCCCN)C(=O)N[C@@H](CO)C(=O)N[C@@H](CCC(=O)O)C(=O)N[C@@H](Cc1ccc(O)cc1)C(=O)O	circular dichroism	sodium phosphate	30 µM	pH 7.4	room temperature	–	18
CC[C@H](C)[C@H](NC(=O)[C@H](Cc1c[nH]c2ccccc12)NC(=O)[C@H](CCCCN)NC(=O)[C@@H](NC(=O)[C@H](CC(C)C)NC(=O)[C@H](CC(=O)O)NC(=O)CNC(=O)[C@@H](NC(=O)[C@@H](NC(=O)[C@H](CO)NC(=O)[C@@H](NC(=O)[C@@H](NC(=O)[C@H](CC(=O)O)NC(=O)[C@H](CCC(N)=O)NC(=O)[C@H](C)NC(=O)[C@H](CCSC)NC=O)[C@@H](C)CC)[C@@H](C)CC)[C@@H](C)O)[C@@H](C)CC)C(C)C)C(=O)N[C@H](C(=O)N[C@@H](CC(=O)O)C(=O)N[C@H](C(=O)N[C@H](C(=O)N[C@@H](CC(N)=O)C(=O)N[C@@H](CCCCN)C(=O)N[C@@H](Cc1ccccc1)C(=O)N[C@H](C(=O)N[C@@H](CCCCN)C(=O)N[C@@H](CCCCN)C(=O)O)[C@@H](C)O)C(C)C)[C@@H](C)O)[C@@H](C)CC	circular dichroism	phosphate buffer 10 mM	1 to 5 µM	pH 7.5	–	approximate	53
CC[C@H](C)[C@H](NC(=O)[C@H](Cc1ccccc1)NC(=O)[C@H](CC(=O)O)NC(=O)[C@H](CCCNC(=N)N)NC(=O)[C@H](Cc1ccccc1)NC(=O)[C@H](Cc1ccccc1)NC(=O)[C@H](CCCCN)NC(=O)[C@H](CO)NC(=O)[C@H](CC(C)C)NC(=O)[C@H](CCCNC(=N)N)NC(=O)[C@H](CCSC)NC(=O)[C@H](C)N)C(=O)N[C@@H](CCN)C(=O)N[C@@H](CCC(N)=O)C(=O)N[C@@H](CCCNC(=N)N)C(=O)N[C@@H](CCCCN)C(=O)N[C@@H](CCCCN)C(=O)O	circular dichroism	20% TFE in PBS	200 µM	pH 7.4	25 °C	–	17.5
CC[C@H](C)[C@H](NC(=O)[C@H](Cc1ccccc1)NC(=O)[C@H](CC(=O)O)NC(=O)[C@H](CCCNC(=N)N)NC(=O)[C@H](Cc1ccccc1)NC(=O)[C@H](Cc1ccccc1)NC(=O)[C@H](CCCCN)NC(=O)[C@H](CO)NC(=O)[C@H](CC(C)C)NC(=O)[C@H](CCCNC(=N)N)NC(=O)[C@H](CCSC)NC(=O)[C@@H](N)CCC(=O)O)C(=O)N[C@@H](CC(C)C)C(=O)N[C@@H](CCC(N)=O)C(=O)N[C@@H](CCCNC(=N)N)C(=O)N[C@@H](CCCCN)C(=O)N[C@@H](CCCCN)C(=O)O	circular dichroism	20% TFE in PBS	200 µM	pH 7.4	25 °C	–	20
CC[C@H](C)[C@H](NC(=O)[C@H](CCCNC(=N)N)NC(=O)CNC(=O)[C@H](CC(C)C)NC(=O)[C@H](CC(C)C)NC(=O)[C@H](CCCCN)NC(=O)[C@H](Cc1ccccc1)NC(=O)[C@H](C)N)C(=O)N[C@H](C(=O)N[C@@H](Cc1c[nH]cn1)C(=O)N[C@@H](Cc1c[nH]cn1)C(=O)N[C@H](C(=O)NCC(=O)N[C@@H](CC(N)=O)C(=O)N[C@@H](Cc1ccccc1)C(=O)N[C@H](C(=O)N[C@@H](Cc1ccc(O)c(O)c1)C(=O)NCC(=O)N[C@@H](Cc1ccccc1)C(=O)N[C@@H](CO)C(=O)N[C@@H](Cc1c[nH]cn1)C(=O)N[C@H](C(=O)N[C@@H](Cc1ccccc1)C(N)=O)C(C)C)C(C)C)C(C)C)[C@@H](C)CC	CD spectroscopy	50% TFE	50 µM	–	–	–	21.6
CC(C)C[C@H](NC=O)C(=O)N[C@@H](C)C(=O)N[C@@H](C)C(=O)N[C@@H](CC(=O)O)C(=O)N[C@@H](CC(C)C)C(=O)N[C@@H](CC(C)C)C(=O)N[C@@H](C)C(=O)N[C@@H](C)C(=O)N[C@@H](CC(C)C)C(=O)NCC(=O)N[C@@H](CC(=O)O)C(=O)N[C@@H](CC(C)C)C(=O)N[C@@H](CC(C)C)C(=O)N[C@@H](CCCCN)C(=O)N[C@@H](Cc1c[nH]c2ccccc12)C(=O)N[C@@H](CC(C)C)C(=O)N[C@@H](CC(C)C)C(=O)N[C@@H](CC(=O)O)C(=O)N[C@@H](C)C(=O)N[C@@H](CC(C)C)C(=O)N[C@@H](C)C(=O)N[C@@H](CCCCN)C(=O)N[C@@H](CC(C)C)C(=O)N[C@@H](C)C(=O)N[C@@H](CCCCN)C(=O)N[C@@H](CCCCN)C(=O)O (racemic)	circular dichroism	POPC vesicles 5 mM	20 µM	–	–	fully membrane bound	77
CC(C)C[C@H](NC(=O)[C@H](C)NC(=O)[C@H](C)NC(=O)[C@H](C)NC(=O)[C@H](C)NC(=O)[C@@H](NC(=O)[C@H](CC(C)C)NC(=O)[C@H](CCCCN)NC(=O)[C@H](CCC(=O)O)NC(=O)[C@@H](NC(=O)[C@H](CO)NC(=O)CN)C(C)C)[C@@H](C)O)C(=O)N[C@@H](CCC(N)=O)C(=O)N[C@@H](CCCNC(=N)N)C(=O)N[C@@H](CC(C)C)C(=O)N[C@@H](CCCCN)C(=O)N[C@@H](CC(N)=O)C(=O)N[C@@H](CCC(=O)O)C(=O)N[C@@H](CCCNC(=N)N)C(=O)N[C@@H](Cc1c[nH]cn1)C(=O)N[C@@H](CCC(=O)O)C(=O)N[C@@H](CCC(=O)O)C(=O)N[C@@H](C)C(=O)N[C@@H](CCC(=O)O)C(=O)N[C@@H](CC(C)C)C(=O)N[C@@H](CCC(=O)O)C(=O)N[C@@H](CCCNC(=N)N)C(=O)N[C@@H](CC(C)C)C(=O)N[C@@H](CCCCN)C(=O)N[C@@H](CO)C(=O)N[C@@H](CCC(=O)O)C(=O)N[C@@H](Cc1ccc(O)cc1)C(=O)O	circular dichroism	sodium phosphate	30 µM	pH 7.4	room temperature	–	19
CC[C@H](C)[C@@H]1NC(=O)[C@H](Cc2ccccc2)NC(=O)[C@H](CC(=O)O)NC(=O)[C@H](CCCNC(=N)N)NC(=O)[C@H](Cc2ccccc2)NC(=O)[C@H](Cc2ccccc2)NC(=O)[C@@H](NC(=O)[C@H](CO)NC(=O)[C@H](CC(C)C)NC(=O)[C@H](CCCNC(=N)N)NC(=O)[C@H](CCSC)NC(=O)[C@H](C)N)CCCCNC(=O)NCCC[C@@H](C(=O)N[C@@H](CCC(N)=O)C(=O)N[C@@H](CCCNC(=N)N)C(=O)N[C@@H](CCCCN)C(=O)N[C@@H](CCCCN)C(=O)O)NC1=O	circular dichroism	20% TFE in PBS	200 µM	pH 7.4	25 °C	–	21.6

A few entries again:
SMILES	technique	sample	tested at	pH	temperature	setting	helicity [%]
CC(C)C[C@H](NC(=O)[C@H](CCC(=O)O)NC(=O)[C@H](C)NC(=O)[C@H](CCC(=O)O)NC(=O)[C@H](CCC(=O)O)NC(=O)[C@H](Cc1c[nH]cn1)NC(=O)[C@H](CCCNC(=N)N)NC(=O)[C@H](CCC(=O)O)NC(=O)[C@H](CC(N)=O)NC(=O)[C@H](CCCCN)NC(=O)[C@H](CC(C)C)NC(=O)[C@H](CCCNC(=N)N)NC(=O)[C@H](CCC(N)=O)NC(=O)[C@H](CC(C)C)NC(=O)[C@H](CCC(=O)O)NC(=O)[C@H](C)NC(=O)[C@H](CC(N)=O)NC(=O)[C@H](C)NC(=O)[C@@H](NC(=O)[C@H](CC(C)C)NC(=O)[C@H](CCCCN)NC(=O)[C@H](CCC(=O)O)NC(=O)[C@@H](NC(=O)[C@H](CO)NC(=O)CN)C(C)C)[C@@H](C)O)C(=O)N[C@@H](CCC(=O)O)C(=O)N[C@@H](CCCNC(=N)N)C(=O)N[C@@H](CC(C)C)C(=O)N[C@@H](CCCCN)C(=O)N[C@@H](CO)C(=O)N[C@@H](CCC(=O)O)C(=O)N[C@@H](Cc1ccc(O)cc1)C(=O)O	circular dichroism	sodium phosphate	30 µM	pH 7.4	room temperature	–	18
